Results of several laboratories.
ABL1 F317L non-phosphorylated: Tyrosine-protein kinase ABL1, non-phosphorylated (ABL1, Homo sapiens, UniProt P00519, F317L)
Chain of UniProt Q92793 (whole entry, looked up): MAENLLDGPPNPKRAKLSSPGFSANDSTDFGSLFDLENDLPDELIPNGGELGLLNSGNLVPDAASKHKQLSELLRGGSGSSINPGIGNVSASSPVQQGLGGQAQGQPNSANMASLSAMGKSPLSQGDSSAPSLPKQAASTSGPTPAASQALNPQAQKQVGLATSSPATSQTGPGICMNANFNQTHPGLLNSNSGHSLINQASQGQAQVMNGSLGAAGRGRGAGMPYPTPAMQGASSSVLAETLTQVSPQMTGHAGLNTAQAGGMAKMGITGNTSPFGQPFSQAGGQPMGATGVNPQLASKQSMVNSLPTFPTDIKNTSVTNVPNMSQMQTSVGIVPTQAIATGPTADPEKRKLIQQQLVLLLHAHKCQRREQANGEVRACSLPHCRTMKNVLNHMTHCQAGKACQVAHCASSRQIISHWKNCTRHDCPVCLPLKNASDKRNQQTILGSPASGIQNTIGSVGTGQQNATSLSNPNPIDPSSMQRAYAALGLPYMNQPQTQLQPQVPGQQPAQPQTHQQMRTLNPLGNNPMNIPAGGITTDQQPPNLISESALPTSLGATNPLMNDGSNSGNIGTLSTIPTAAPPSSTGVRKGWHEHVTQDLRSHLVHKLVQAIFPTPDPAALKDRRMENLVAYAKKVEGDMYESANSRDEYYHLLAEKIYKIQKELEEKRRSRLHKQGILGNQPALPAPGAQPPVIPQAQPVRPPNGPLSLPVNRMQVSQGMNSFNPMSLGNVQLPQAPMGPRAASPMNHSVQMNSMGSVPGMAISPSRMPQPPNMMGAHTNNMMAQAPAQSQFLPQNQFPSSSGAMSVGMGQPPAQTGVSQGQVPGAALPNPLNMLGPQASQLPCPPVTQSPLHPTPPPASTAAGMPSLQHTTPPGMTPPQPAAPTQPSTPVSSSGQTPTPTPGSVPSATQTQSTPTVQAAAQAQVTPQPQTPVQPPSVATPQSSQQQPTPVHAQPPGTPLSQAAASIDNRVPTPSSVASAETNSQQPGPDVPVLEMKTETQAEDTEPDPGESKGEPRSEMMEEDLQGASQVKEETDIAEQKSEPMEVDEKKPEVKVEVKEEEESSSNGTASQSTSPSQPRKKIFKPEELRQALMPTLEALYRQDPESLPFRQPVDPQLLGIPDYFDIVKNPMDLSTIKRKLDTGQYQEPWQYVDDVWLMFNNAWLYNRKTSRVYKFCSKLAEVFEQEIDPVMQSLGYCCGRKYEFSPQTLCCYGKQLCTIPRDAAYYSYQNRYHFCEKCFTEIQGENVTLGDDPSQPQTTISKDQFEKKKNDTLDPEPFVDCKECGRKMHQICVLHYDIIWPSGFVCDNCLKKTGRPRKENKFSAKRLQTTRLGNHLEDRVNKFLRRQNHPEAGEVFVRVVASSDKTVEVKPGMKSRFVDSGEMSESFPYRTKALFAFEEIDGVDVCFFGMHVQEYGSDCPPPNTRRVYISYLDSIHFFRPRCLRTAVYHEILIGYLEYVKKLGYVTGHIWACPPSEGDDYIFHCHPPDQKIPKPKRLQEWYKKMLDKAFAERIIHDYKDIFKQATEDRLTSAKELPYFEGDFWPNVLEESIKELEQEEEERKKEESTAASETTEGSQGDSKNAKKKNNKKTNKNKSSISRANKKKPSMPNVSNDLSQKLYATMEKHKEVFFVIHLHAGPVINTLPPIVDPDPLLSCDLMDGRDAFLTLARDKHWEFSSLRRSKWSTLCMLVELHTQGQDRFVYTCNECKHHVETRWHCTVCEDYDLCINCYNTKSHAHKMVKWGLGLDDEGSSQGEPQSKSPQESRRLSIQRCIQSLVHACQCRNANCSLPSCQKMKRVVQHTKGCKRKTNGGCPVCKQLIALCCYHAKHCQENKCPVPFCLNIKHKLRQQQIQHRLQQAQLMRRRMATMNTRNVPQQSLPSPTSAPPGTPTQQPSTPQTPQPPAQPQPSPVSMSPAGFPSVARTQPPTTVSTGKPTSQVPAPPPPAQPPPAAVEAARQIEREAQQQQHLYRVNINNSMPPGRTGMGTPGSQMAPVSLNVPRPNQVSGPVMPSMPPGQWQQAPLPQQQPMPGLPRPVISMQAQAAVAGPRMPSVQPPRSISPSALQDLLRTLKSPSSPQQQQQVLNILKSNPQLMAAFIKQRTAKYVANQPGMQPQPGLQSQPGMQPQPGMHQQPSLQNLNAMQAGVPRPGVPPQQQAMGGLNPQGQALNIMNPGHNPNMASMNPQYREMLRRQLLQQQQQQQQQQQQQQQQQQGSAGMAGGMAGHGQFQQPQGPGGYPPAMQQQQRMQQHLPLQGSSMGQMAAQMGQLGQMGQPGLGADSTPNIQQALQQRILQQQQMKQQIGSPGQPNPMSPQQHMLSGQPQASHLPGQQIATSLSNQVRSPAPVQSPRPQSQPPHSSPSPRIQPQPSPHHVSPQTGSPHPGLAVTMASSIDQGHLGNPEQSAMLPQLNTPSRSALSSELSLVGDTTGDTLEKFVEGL
Chain of UniProt P10721 (whole entry, unmodified, looked up): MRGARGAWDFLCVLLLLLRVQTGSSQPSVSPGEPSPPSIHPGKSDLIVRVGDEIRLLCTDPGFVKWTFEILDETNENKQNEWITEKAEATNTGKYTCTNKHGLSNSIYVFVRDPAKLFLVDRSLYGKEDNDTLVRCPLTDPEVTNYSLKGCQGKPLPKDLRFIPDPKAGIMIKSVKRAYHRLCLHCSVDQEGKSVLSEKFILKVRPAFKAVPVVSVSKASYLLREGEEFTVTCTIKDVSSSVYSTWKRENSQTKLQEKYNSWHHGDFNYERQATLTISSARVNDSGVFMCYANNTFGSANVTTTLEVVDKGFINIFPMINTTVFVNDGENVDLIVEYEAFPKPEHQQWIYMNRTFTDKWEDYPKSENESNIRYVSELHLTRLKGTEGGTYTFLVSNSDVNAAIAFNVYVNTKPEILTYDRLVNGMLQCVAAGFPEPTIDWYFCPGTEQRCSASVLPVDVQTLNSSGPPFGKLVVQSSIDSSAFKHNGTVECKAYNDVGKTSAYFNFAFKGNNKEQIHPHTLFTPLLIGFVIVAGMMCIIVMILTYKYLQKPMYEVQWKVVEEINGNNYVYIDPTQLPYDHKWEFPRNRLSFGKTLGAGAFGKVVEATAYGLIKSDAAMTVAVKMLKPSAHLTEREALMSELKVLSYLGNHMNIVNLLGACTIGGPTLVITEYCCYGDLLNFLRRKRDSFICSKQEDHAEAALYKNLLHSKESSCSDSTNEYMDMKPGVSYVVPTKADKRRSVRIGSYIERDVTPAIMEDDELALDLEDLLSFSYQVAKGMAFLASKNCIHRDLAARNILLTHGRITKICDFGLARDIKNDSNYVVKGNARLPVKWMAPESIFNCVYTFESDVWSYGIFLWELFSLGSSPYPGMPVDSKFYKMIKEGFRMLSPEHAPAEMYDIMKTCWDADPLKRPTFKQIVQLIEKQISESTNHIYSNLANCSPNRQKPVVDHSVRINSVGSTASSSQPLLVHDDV

SMILES	target or system	assay	test system	setting	how to read	endpoint	result
C=C(NC(=O)c1csc(-c2nc3c(cc2O)-c2nc(cs2)C(=O)NC(C(C)O)C(=O)NC(=C(C)OC)c2nc(cs2)C(=O)NC2c4nc(cs4)C(=O)NC(COC(=O)c4c5c6c(cccc6n4O)COC(=O)C(OC4CC(C)(O)C(N(C)C)C(C)O4)C2OC5)c2nc-3cs2)n1)C(N)=O (stereo not shown)	–	–	male cynomolgus monkey, plasma	intravenous, 3 mg/kg, single dose, infusion	–	AUC(0-t)	20800 ng·h/mL
C=CC(=O)N1CCc2ccc(-n3c(=O)ccc4cnc5ccc(-c6cnn(C)c6)cc5c43)cc21	ABL1 F317L non-phosphorylated	KINOMEscan, item: (F317L)-nonphosphorylated	–	1 µM	baseline: control	remaining binding	99%
CNC(=O)C1CCN(c2cc(C)c(F)cc2NC(=O)c2ccc(-c3cc(O)ccc3C)c(C)c2)CC1	Tyrosine-protein kinase ABL1, non-phosphorylated (ABL1, Homo sapiens, UniProt P00519, Q252H)	binding, competition with immobilised ligand	–	1 µM	–	remaining binding	39%
COC1CN([C@H]2CC[C@H]([C@@]3(C)Oc4c(Cl)cc(C(=O)NCc5c(SC)cc(C)[nH]c5=O)c(C)c4O3)CC2)C1	–	RNA-seq, item: RANBP17 mouse homolog	mouse, HT-1376 xenograft, whole blood	dose not given	baseline: vehicle	log2 fold change	2.01
Nc1ncc(-c2cc(-c3cnn(CC(F)(F)F)c3)ncc2F)nc1C(=O)NC1CNCC(F)C1 (stereo not shown)	MEK1	KINOMEscan competition binding	–	1 µM	baseline: DMSO control	remaining binding	65%
Cc1cnc2nc1Nc1cccc(c1)COC/C=C/COCc1cc(ccc1OCCN1CCOCC1)N2	EGFR (Homo sapiens, UniProt P00533, T790M)	binding	–	0.1 µM	–	remaining binding	100%
Cn1cc(-c2cc(N3CCCCS3(=O)=O)ccc2N[C@H]2CC[C@H](C)CC2)c2cc[nH]c2c1=O (stereo in doubt)	Bromodomain and WD repeat-containing protein 1, BD2 (BRWD1, Homo sapiens, UniProt Q9NSI6)	binding, competition with immobilised ligand	–	1 µM	–	remaining binding	92%
C=CC(=O)Nc1cccc(Cn2ncc3cnc(Nc4cnn(CCOC)c4)nc32)c1	MEK6 human	binding, KINOMEscan	–	100 nM	lower = stronger binding	percent of control	86%
C=CC(=O)N1CCCC(n2c(=O)c3ncccc3n(Cc3ccc(Oc4ccccc4)cc3)c2=O)C1 (stereo not shown)	Tyrosine-protein kinase ABL1, non-phosphorylated (ABL1, Homo sapiens, UniProt P00519)	cell-free assay, competition with immobilised ligand	–	1 µM	–	remaining binding	86%
COc1cc(Nc2nccc(-c3cnn4nc(OC)ccc34)n2)cc(C(F)(F)F)c1	KIT (Homo sapiens, UniProt P10721, L576P)	binding	–	1 µM	–	remaining binding	64%
CC(=O)N1c2ccc(-c3ccc(CNC(=O)c4cn5cc(-c6cnc(N)nc6)nc(N6CCOCC6)c5n4)cc3)cc2CC[C@@H]1C	CREBBP (Homo sapiens, UniProt Q92793)	binding, competition with immobilised ligand	–	10 µM	–	remaining binding	41%
Nc1ncc2c(n1)-c1c([nH]c3ccc(C4=CCOCC4)cc13)CCC2	Tyrosine-protein kinase ABL1, phosphorylated (ABL1, Homo sapiens, UniProt P00519, Y253F)	binding, competition with immobilised ligand	–	1 µM	–	remaining binding	97%
CCN1CCN(Cc2ccc(C(=O)Nc3ccc(C)c(NCc4cnc5[nH]ccc5c4OC)c3)cc2C(F)(F)F)CC1	ABL1 F317L non-phosphorylated	binding, competition with immobilised ligand	–	1 µM	–	remaining binding	4.2%

Repeated from above:
SMILES	target or system	assay	test system	setting	how to read	endpoint	result
COc1cc(Nc2nccc(-c3cnn4nc(OC)ccc34)n2)cc(C(F)(F)F)c1	KIT (Homo sapiens, UniProt P10721, L576P)	binding	–	1 µM	–	remaining binding	64%
